Published values of several laboratories.
Parts stem from different laboratories: compare values within a part only.

Sample 1
Target: Interferon regulatory factor 7, full length, phosphomimetic (IRF7, Homo sapiens, UniProt Q92985, residues 1-503, S471D/S472D/S475D/S476D/S477D/S483D/S484D/S487D)
Method: protein-binding microarray
Form: double-stranded DNA, one strand shown
Matrix: in vitro
Tested at: 2200 nM top
Notes: 60-bp whole probe
Together with: salmon DNA 0.4 mg/ml
Reference: random background probes
Reading: higher = stronger binding
Shared flanks, not repeated: GCCTAGCAC … GTCTTGATTCGCTTGACGCTGCTG
Residues (chain): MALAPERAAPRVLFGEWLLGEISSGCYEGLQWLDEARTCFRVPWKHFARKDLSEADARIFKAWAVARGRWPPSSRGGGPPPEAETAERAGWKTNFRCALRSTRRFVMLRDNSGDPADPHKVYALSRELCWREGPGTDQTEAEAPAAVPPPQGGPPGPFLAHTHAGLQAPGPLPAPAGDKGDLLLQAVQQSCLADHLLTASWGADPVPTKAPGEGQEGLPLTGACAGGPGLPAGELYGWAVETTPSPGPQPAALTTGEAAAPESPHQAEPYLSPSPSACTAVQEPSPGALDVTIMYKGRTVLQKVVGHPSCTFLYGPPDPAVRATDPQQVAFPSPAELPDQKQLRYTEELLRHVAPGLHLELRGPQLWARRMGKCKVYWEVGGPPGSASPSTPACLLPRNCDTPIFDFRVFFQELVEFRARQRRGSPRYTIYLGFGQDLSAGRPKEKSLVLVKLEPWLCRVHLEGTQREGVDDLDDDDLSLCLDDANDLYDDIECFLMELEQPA
Oligonucleotide	fitted relative affinity [z-score]
TTAGGACTGGGGTTCGGTTAGTGCTAG	-0.231
GACGATTTTGGGTATCGAGACGTGCTA	0.933
GATGGTATCCTTCTCCTGACGTGCTAG	1.27
TCAGTTACCCCTCATCAAACTGTGCTA	1.54
TCATTTGTTTTTTTCTAACTGTGCTAG	2.04
TTTTTTTTCTACTTCTGTTTGTGCTAG	3.95
TTCCTTTGCTTTCTCCCAAGGTGCTAG	3.01
AGGTGGGAGGGGACAGTGGTGTGCTAG	0.231
GACGGTCACGGTTTCGGGACGTGCTAG	2.07

Sample 2
Target: RNA binding protein fox-1 homolog 2, RRM domain, GST-SBP tag (RBFOX2, Homo sapiens, UniProt O43251-10, residues 100-194)
Method: RNA Bind-n-Seq
Form: RNA
Matrix: in vitro
Tested at: 365 nM
Notes: natural RNA segment, single round, ends assumed
Reference: no-protein control
Reading: higher = stronger binding
Shared flanks, not repeated: GGGAGUUCUACAGUCCGACGAUC … UGGAAUUCUCGGGUGCCAA
Target sequence (chain): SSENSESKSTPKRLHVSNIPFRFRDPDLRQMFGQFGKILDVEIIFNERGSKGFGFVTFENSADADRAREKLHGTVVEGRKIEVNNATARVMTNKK
Oligonucleotide	RBNS enrichment (R)
UCAGAUUGUUUUAAAGAACUGUAACUUCACAAAAGUCAAUAUUAAAAAAUAAAUUAUUUAAGAACAAUUCUGAUGCUUUCUGUUAAUGAGUGCUGGAAGAAGAUAGGCUC	0.575
GUCAGCCCAUAAGCAAAGUCAAAUAACCCACGUGAGGACUGCUUUGUGUGUCUAACUCUCAGUUAUAAGCAUUCUGACCAGUGUUUAAACGUGUAAAUAAGAACACACAU	0.478
GGAUUGUGGGGAGAAAUCCCAGGUCAGGCCACAGCUGCAUGUUGCAUUAAAUGUGUUCUCAUGUCGCAGUUUGGCUCAUAGUGAUAAUAAUAGCUGGUAUGUAUCCAGCU	1.41
AGAGAAGUCUGCUUUGACUGCCUUGCCUGACCAAAUUAAAUAAAUAGUUGCCAGAUCUCUACUUUUAUCCUGCAUGGGAUAAUAUAUCUGUAAAUGCAUGAGUUUGGAAA	6.65
AGUGGUCAGCAGCUGUUCCUAGCCUGUGAGCCGAAAGCAAAUCAGAAUUUAUAAAUCACAUCUCAUCAAUACUAACAAAUGACAUUUUGAAAGGAAAGAUUGGGUUGCAU	0.25
UUGAAUCUGUAAAUUACCUUGGGCAGUAUGGCCAUUUUCACAAUAUUGAUUCUUCCUACCCAAGAGCAUGGAAUGUUCUUCCAUUUGUUUGUAUCCUCUUUUAUUUCCUU	0.93
UUUUUAGAAGUAUUAUGUGGUAUUUUACUGUGUAUCACUUCUGUGGUAAACAUGUGAAGUCCUUUGGCUUAGUCAUACUUCAUAACUUUUGAACGUUGGGUUUUUUGUUG	0.359
CUUCUCCUUGUGAAGCCAUAAGCCUGACUUCCCCUCAGCCCUGCUCCCUCAUUUUCUCUCAUCAUGUAGGAAAGAGUGGGACCCCCUCCCAACCCCUUUCUGUUAAAGCC	0.625

Sample 3
Target: Centromere-binding protein 1, full length, His-tagged (CBF1, Saccharomyces cerevisiae, UniProt P17106, residues 1-351)
UniProt P17106, sequence (whole entry, looked up): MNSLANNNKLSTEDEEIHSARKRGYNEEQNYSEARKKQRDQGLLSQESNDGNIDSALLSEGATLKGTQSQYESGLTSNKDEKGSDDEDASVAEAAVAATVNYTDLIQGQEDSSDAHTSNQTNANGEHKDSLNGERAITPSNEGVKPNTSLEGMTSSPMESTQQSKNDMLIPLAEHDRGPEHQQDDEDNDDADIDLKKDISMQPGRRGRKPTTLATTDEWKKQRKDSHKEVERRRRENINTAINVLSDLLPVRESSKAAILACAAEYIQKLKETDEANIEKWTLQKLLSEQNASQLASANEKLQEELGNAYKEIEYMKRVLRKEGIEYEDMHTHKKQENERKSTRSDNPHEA
Method: competition protein-binding microarray
Form: double-stranded DNA, one strand shown
Matrix: in vitro
Tested at: 2 µM
Notes: whole 60-bp probe, lowest competitor level
Together with: Pho4 competitor, 0.05 µM
Reading: higher = stronger binding
Shared flanks, not repeated: … GTCTTGATTCGCTTGACGCTGCTG
Oligonucleotide	fluorescence intensity [a.u.]
CATACCCAACCTTTTCACGTGAGCTAAGATATTTGT	1190
TCGAATAAAGTGAAACATGTGATACCCGCCATCCAA	641
GAAGGAGAGACTGTTCACATGCCTGAGGAAGATGAC	135
CTTTCCCGATCTTGTCACTTAACTTTAGCACATTTG	80.8
ATCTTTCGGAATTGTGAGGTGCAGGGATGCGGACTT	73
GTCAAGAACGGTGTCCACATGGTCTTCGCTTCTTTC	107
ATCTTTCCGTGGAGTATCGTGACGGGACTAATGATC	209
AAGTTTTTTTCTACACGCATGAGCAGAATTAGACGG	107
CTTCTGTAAATTTGGATCGTGGGTGGACGCGCCCCG	83.9
GTTACAGATCTCCTACACGTTACATGTTCCAAAGTA	95.4
AGCCATACACCAAAGCACGTCGACGAGGTTATATTT	102

Further values, each from its own experiment
Molecule	target	assay	system	conditions	scale	quantity	value
PhoQ, residues 284 288 289 292 302 303 SACGEM	PhoP, residues 12 14 15 18 19 LHHSG (Escherichia coli, UniProt P23836)	Sort-seq, measured: YFP reporter	E. coli	PhoQ-PhoP variant library, together with: 10 µM Mg2+	reference: high Mg2+ state, higher = stronger signaling	fold induction	3.15

Repeated from above (sample 2):
Oligonucleotide	RBNS enrichment (R)
GGAUUGUGGGGAGAAAUCCCAGGUCAGGCCACAGCUGCAUGUUGCAUUAAAUGUGUUCUCAUGUCGCAGUUUGGCUCAUAGUGAUAAUAAUAGCUGGUAUGUAUCCAGCU	1.41
UUGAAUCUGUAAAUUACCUUGGGCAGUAUGGCCAUUUUCACAAUAUUGAUUCUUCCUACCCAAGAGCAUGGAAUGUUCUUCCAUUUGUUUGUAUCCUCUUUUAUUUCCUU	0.93
